# Measurements pooled from the literature.
# Protocols differ between the studies behind these lines.
Molecule,assay,test system,conditions,how to read,endpoint,result
CC(=O)O[C@H]1C(=O)[C@@]2(C)[C@H]([C@H](OC(=O)c3ccccc3)[C@]3(O)C[C@H](OC(=O)[C@H](O)[C@@H](NC(=O)c4ccccc4)c4ccccc4)C(C)=C1C3(C)C)[C@]1(OC(C)=O)CO[C@@H]1C[C@@H]2O,refers to: compound,"patients, plasma","dose not given, above 0.05 µM, with: veliparib",reference: absence of veliparib,time above threshold concentration,no effect
CN[C@H](CC(C)C)C(=O)N[C@H]1C(=O)N[C@@H](CC(N)=O)C(=O)N[C@H]2C(=O)N[C@H]3C(=O)N[C@H](C(=O)N[C@H](C(=O)O)c4cc(O)cc(O)c4-c4cc3ccc4O)[C@H](O)c3ccc(c(Cl)c3)Oc3cc2cc(c3O[C@@H]2O[C@H](CO)[C@@H](O)[C@H](O)[C@H]2O[C@H]2C[C@](C)(N)[C@H](O)[C@H](C)O2)Oc2ccc(cc2Cl)[C@H]1O,microdialysis,"pig, Danish Landrace, subcutaneous adipose tissue","intravenous, 1000 mg over 100 min, 450 min dosing interval, with: 4.0 µg/mL MIC",reference: dosing interval,time above MIC,93%
CC[C@H](C)[C@H](NC(=O)[C@@H]1CCCN1C(=O)CNC(=O)[C@H](Cc1ccccc1)NC(=O)[C@H](CC(N)=O)NC(=O)[C@H](CC(N)=O)NC(=O)[C@H](CO)NC(=O)[C@H](CO)NC(=O)[C@H](Cc1c[nH]cn1)NC(=O)[C@@H](NC(=O)[C@H](CC(C)C)NC(=O)[C@H](Cc1ccccc1)NC(=O)[C@H](CC(N)=O)NC(=O)[C@H](C)NC(=O)[C@H](CC(C)C)NC(=O)[C@H](CCCNC(=N)N)NC(=O)[C@H](CCC(N)=O)NC(=O)[C@@H](NC(=O)[C@H](C)NC(=O)[C@@H]1CSSC[C@H](NC(=O)[C@@H](N)CCCCN)C(=O)N[C@@H](CC(N)=O)C(=O)N[C@@H]([C@@H](C)O)C(=O)N[C@@H](C)C(=O)N[C@@H]([C@@H](C)O)C(=O)N1)[C@@H](C)O)C(C)C)C(=O)N[C@@H](CC(C)C)C(=O)N1CCC[C@H]1C(=O)N1CCC[C@H]1C(=O)N[C@H](C(=O)N[C@@H](CC(N)=O)C(=O)N[C@H](C(=O)NCC(=O)N[C@@H](CO)C(=O)N[C@@H](CC(N)=O)C(=O)N[C@H](C(=O)N[C@@H](Cc1ccc(O)cc1)C(N)=O)[C@@H](C)O)C(C)C)[C@@H](C)O,transmittance,sodium acetate buffer,"concentration not given, pH 4, 37 °C, continuous agitation",,time without aggregation,> 100 h
Cn1cc(-c2cnc3[nH]cc(-c4cccc(C#N)c4)c3c2)cn1,,plasma,"oral, 5 mg/kg",,time to below LLOQ,4.7 h
AFHYESQ,HPLC,"peptide, human serum",37 °C,,time to complete degradation,≤ 45 min
C[C@@H](O)[C@H]1C(=O)N2C(C(=O)O)=C(S[C@@H]3CN[C@H](C(=O)N(C)C)C3)[C@H](C)[C@H]12,microdialysis,"pig, Danish Landrace, cancellous bone","intravenous, 1000 mg over 10 min, 450 min dosing interval, with: 2.0 µg/mL MIC",reference: dosing interval,time above MIC,32%
CC(=O)O[C@H]1C(=O)[C@@]2(C)[C@H]([C@H](OC(=O)c3ccccc3)[C@]3(O)C[C@H](OC(=O)[C@H](O)[C@@H](NC(=O)c4ccccc4)c4ccccc4)C(C)=C1C3(C)C)[C@]1(OC(C)=O)CO[C@@H]1C[C@@H]2O,LC-MS/MS,"cancer patients, non-ritonavir cohort, plasma","intravenous, 175 mg/m^2, cycle 1 day 1, with: carboplatin",,time above 0.5 µM,23.8 h
CC(C)(CO)c1cc2cc(NC(=O)C3(c4ccc5c(c4)OC(F)(F)O5)CC3)c(F)cc2n1C[C@@H](O)CO,,"cystic fibrosis patients, plasma","oral, dose not given, once daily dosing, with: ivacaftor twice daily",,time to steady state,≤ 8 days
O=C(CCCCCCC(=O)C(F)(F)F)Nc1ccccc1,LC-MS,human liver S9 fraction,"0.02 mM, 37 °C, with: NADPH",,time to complete disappearance,15 min
CCN(CC)CCNC(=O)c1c(C)[nH]c(/C=C2\C(=O)Nc3ccc(F)cc32)c1C,,"human, plasma","oral, 50 mg daily, with: everolimus 30 mg weekly",,time of Cmin,1 h
